Assay results from different studies.
Lines come from different studies, so protocols differ.
ABL1 M351T phosphorylated: Tyrosine-protein kinase ABL1, phosphorylated (ABL1, Homo sapiens, UniProt P00519, M351T)
Sequence of UniProt P21675 (whole entry, looked up): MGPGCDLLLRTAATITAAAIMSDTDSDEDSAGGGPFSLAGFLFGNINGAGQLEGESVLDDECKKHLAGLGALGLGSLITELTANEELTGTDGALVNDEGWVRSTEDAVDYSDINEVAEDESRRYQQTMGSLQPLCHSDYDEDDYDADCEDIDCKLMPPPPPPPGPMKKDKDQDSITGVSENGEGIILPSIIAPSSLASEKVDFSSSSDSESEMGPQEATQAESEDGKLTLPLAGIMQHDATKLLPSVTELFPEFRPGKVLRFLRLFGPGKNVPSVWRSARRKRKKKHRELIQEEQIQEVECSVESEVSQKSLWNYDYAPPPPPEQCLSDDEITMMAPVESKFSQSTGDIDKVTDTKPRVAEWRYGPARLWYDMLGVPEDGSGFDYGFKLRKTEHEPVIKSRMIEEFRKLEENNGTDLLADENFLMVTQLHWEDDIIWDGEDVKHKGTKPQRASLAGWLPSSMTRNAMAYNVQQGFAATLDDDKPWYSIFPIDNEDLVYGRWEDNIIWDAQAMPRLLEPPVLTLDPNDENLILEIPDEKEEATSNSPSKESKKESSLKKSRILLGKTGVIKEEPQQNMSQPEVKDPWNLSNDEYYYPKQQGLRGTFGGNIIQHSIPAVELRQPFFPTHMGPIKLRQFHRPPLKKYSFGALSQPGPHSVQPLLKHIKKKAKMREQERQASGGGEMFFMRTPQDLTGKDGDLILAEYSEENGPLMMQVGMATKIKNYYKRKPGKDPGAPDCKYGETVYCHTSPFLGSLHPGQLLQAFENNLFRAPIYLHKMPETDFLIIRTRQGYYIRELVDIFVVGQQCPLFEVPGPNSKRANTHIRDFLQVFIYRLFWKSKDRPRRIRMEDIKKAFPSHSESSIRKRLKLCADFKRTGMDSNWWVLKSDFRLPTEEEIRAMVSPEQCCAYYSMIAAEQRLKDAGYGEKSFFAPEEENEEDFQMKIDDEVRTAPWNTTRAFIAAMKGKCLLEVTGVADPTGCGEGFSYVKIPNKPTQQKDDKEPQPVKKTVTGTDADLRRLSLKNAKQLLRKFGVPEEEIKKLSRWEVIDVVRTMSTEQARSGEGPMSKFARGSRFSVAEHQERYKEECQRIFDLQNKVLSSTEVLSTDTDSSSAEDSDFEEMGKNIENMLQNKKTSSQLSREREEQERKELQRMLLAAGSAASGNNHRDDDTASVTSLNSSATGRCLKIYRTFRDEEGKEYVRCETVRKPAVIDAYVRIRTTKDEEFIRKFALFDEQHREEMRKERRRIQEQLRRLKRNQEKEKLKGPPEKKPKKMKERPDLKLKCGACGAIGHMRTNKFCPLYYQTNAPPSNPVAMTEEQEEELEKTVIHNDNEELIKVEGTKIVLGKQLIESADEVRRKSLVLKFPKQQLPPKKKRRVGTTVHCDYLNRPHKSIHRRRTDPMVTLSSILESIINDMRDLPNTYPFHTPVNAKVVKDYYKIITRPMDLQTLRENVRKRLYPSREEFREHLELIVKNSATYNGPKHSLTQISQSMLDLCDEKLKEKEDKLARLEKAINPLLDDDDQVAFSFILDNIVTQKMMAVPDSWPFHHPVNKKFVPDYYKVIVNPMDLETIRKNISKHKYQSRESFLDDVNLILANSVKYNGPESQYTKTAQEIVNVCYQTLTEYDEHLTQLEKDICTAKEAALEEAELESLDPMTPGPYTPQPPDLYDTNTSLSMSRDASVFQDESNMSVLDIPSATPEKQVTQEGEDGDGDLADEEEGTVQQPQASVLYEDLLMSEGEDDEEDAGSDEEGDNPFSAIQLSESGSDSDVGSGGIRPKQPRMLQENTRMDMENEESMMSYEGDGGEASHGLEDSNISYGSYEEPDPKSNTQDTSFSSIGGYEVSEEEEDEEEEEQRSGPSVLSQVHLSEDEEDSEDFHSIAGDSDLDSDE

Compound | target | observed | technique | tested at | reference | remaining binding
CCN1CCN(Cc2ccc(C(=O)Nc3ccc(C)c(NCc4cnc5[nH]ccc5c4OC)c3)cc2C(F)(F)F)CC1 | Tyrosine-protein kinase ABL1, phosphorylated (ABL1, Homo sapiens, UniProt P00519, F317L) | binding | competition with immobilised ligand | 1 µM |  | 0.8%
Cc1cnc2nc1Nc1cccc(c1)COC/C=C/COCc1cc(ccc1OCCN1CCOCC1)N2 | Epidermal growth factor receptor (EGFR, Homo sapiens, UniProt P00533, L861Q) | binding |  | 0.1 µM |  | 93%
CNC1C[S+]2CC[S+]3CC[S+](C1)[Ru-4]321([N]=C=S)[n]2c3ccc(OC)cc3c3c4c(c5cc(F)c[n+]1c5c32)C(=O)NC4=O (centres unmarked) | ABL1 M351T phosphorylated |  | KinomeScan | 0.1 µM | untreated | 100%
COc1cc(Nc2nccc(-c3cnn4nc(OC)ccc34)n2)cc(C(F)(F)F)c1 | Receptor-type tyrosine-protein kinase FLT3 (FLT3, Homo sapiens, UniProt P36888) | binding | competition with immobilised ligand | 1 µM |  | 55%
CNC(=O)C1CCN(c2cc(C)c(F)cc2NC(=O)c2ccc(-c3cc(O)ccc3C)c(C)c2)CC1 | Tyrosine-protein kinase ABL1, phosphorylated (ABL1, Homo sapiens, UniProt P00519, H396P) | binding | competition with immobilised ligand | 1 µM |  | 22%
CC(C)=CC1OC(C)(C)C2C=C3C(=O)C(Cl)=CC(O)C3C3C(O)C4OC4C(=O)C132 (centres unmarked) | ABL1 M351T phosphorylated | cell-free assay | competition with immobilised ligand | 10 µM |  | 78%
Cn1cc(-c2cc(N3CCCCS3(=O)=O)ccc2N[C@H]2CC[C@H](C)CC2)c2cc[nH]c2c1=O (stereo in doubt) | Nucleosome-remodeling factor subunit BPTF (BPTF, Homo sapiens, UniProt Q12830) | binding | competition with immobilised ligand | 1 µM |  | 100%
CC(=O)N1c2ccc(-c3ccc(CNC(=O)c4cn5cc(-c6cnc(N)nc6)nc(N6CCOCC6)c5n4)cc3)cc2CC[C@@H]1C | Transcription initiation factor TFIID subunit 1, BD2 (TAF1, Homo sapiens, UniProt P21675) | binding | competition with immobilised ligand | 10 µM |  | 3.1%

Some of these lines once more:
Compound | target | observed | technique | tested at | reference | remaining binding
Cn1cc(-c2cc(N3CCCCS3(=O)=O)ccc2N[C@H]2CC[C@H](C)CC2)c2cc[nH]c2c1=O (stereo in doubt) | Nucleosome-remodeling factor subunit BPTF (BPTF, Homo sapiens, UniProt Q12830) | binding | competition with immobilised ligand | 1 µM |  | 100%
